Experimental data pooled from the literature.
Parts stem from different laboratories: compare values within a part only.

Series 1 — method: RNA Bind-n-Seq; form: RNA; sample: in vitro; tested at: 20 nM; setting: 6-mer, flanks averaged, single round; added: 150 mM LiCl; baseline: input library; direction: higher = stronger binding
Target: TAR DNA-binding protein 43, full length, His tag (TARDBP, Homo sapiens, UniProt Q13148, residues 1-414)
| Strand | 6-mer enrichment (R) |
| --- | --- |
| AACGUC | 0.818 |
| AUCAAU | 0.865 |
| GCAGUC | 0.879 |

Series 2 — method: RNA Bind-n-Seq; form: RNA; sample: in vitro; tested at: 365 nM; baseline: no-protein control; direction: higher = stronger binding
Target: RNA binding protein fox-1 homolog 2, RRM domain, GST-SBP tag (RBFOX2, Homo sapiens, UniProt O43251-10, residues 100-194)
Setting: natural RNA segment, single round, ends assumed
Shared flanks, not repeated: GGGAGUUCUACAGUCCGACGAUC … UGGAAUUCUCGGGUGCCAA
Target sequence (chain): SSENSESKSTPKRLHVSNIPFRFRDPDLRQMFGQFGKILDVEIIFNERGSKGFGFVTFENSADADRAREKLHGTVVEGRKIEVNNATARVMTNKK
| Strand | RBNS enrichment (R) |
| --- | --- |
| GCUGUCAUUGCUAGUCGUGCUCUAGCAUACAACCCUGAAACCAUCCUAGGUGACAUUUUAGAAUUAAUACUUAAGUGUUGUUAAAUGGGGACAUGGAGCUUAAUCAUUGG | 0.272 |
| AGGUGGGACCUCUGAGACACUGGUCCCCACAGAGCUGUAAGUGAGAAGAGCAGUUUGUCCACUCUGGGUGCUGCUGAGGGAGCUGUUUGGGAAGAAGCCAUCCCUGGCCA | 0.859 |
| AGAGGGGUAGGAUGUACAGGGGUAGUUUGUUUUAGAACCAGCCGUAUUUUACAUGAAGCUGUAUAAUUAAUUGUCAUUAUUUUUGUUAGCAAAGAUUAAAUGUGUCAUUG | 0.614 |
| CAGCUCUGUUGACUUCUCUUGGAACACACCUGAACGCUUUCCUCAUUUCUAACCUGUGCCACCUCUUGUUUCGUUCAUGCUGAGCCUGUAGUUUCAGUCAUGGACUUUUG | 0.705 |
| CUUAACUGUGGCAAAAAUAAUGACAUGUAGCAAAGAUUUUAAAACAAAGUAUUUUUUCUUUUAUAAAUUGUGUUGUGUUGUGUGAUAUUAUUGAUUGCGGCUCCCUGACC | 0.567 |

Series 3 — method: protein binding microarray; form: double-stranded DNA, one strand shown; sample: in vitro; tested at: not given; baseline: not given; direction: higher = stronger binding
Target: Histone acetyltransferase KAT6A, winged helix 2, GST fusion (KAT6A, Homo sapiens, UniProt Q92794, residues 85-181)
Setting: 8-mer, flanks averaged, mean of 2 arrays, mostly near background
Target sequence (chain): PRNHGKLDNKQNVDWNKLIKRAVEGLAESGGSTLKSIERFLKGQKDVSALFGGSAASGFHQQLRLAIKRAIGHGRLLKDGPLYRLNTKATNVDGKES
| Strand | E-score |
| --- | --- |
| CAGGACTA | -0.114 |
| GAAAATCA | -0.0134 |
| AGATCAGA | -0.086 |
| AGTCACAT | -0.164 |
| ACCATAGG | -0.115 |
| CGCTCCCC | 0.0194 |
| TAATCACA | -0.101 |
| ACGACAAT | 0.0178 |

Other studies, line by line
| Molecule | target | test | system | setting | how to read | endpoint | value |
| --- | --- | --- | --- | --- | --- | --- | --- |
| PhoQ, residues 284 288 289 292 302 303 GANMMA | PhoP, residues 12 14 15 18 19 NQFFI (Escherichia coli, UniProt P23836) | Sort-seq, refers to: YFP reporter | E. coli | PhoQ-PhoP variant library, added: 10 µM Mg2+ | baseline: high Mg2+ state, higher = stronger signaling | fold induction | 1.09 |

Some of these lines once more (series 2):
| Strand | RBNS enrichment (R) |
| --- | --- |
| GCUGUCAUUGCUAGUCGUGCUCUAGCAUACAACCCUGAAACCAUCCUAGGUGACAUUUUAGAAUUAAUACUUAAGUGUUGUUAAAUGGGGACAUGGAGCUUAAUCAUUGG | 0.272 |
| CAGCUCUGUUGACUUCUCUUGGAACACACCUGAACGCUUUCCUCAUUUCUAACCUGUGCCACCUCUUGUUUCGUUCAUGCUGAGCCUGUAGUUUCAGUCAUGGACUUUUG | 0.705 |
